Results collected from several papers.
Lines come from different studies, so protocols differ. ± gives the spread as reported.
Organism: Mycobacterium tuberculosis

With `NNC(=O)c1ccncc1` the IC50 was 0.14 µM (THP-1, H37Rv; intracellular).
`Cn1c(SCc2ccc(Cl)cc2)nnc1-c1cncc(C#Cc2ccccc2)c1` has an IC50 of 2.2 ± 0.364 µM (bacterial growth, MABA; Erdman wild type).
With `CO[C@H]1/C=C/O[C@@]2(C)Oc3c(C)c(O)c4c(O)c(c(/C=N/N5CCN(C)CC5)c(O)c4c3C2=O)NC(=O)/C(C)=C\C=C\[C@H](C)[C@H](O)[C@@H](C)[C@@H](O)[C@@H](C)[C@H](OC(C)=O)[C@@H]1C` the IC50 was 0.002 µM (H37Rv; anaerobic conditions).
`Nc1c(C(=O)N2CCOCC2)sc2ncccc12` gave an IC50 of > 100 µM (growth inhibition; H37Rv LepB under-expressing).
The IC50 of `CC[C@@H](CO)NCCN[C@@H](CC)CO` is reported as 2.14 ± 0.46 µM (bacterial growth; H37Rv; Wayne model, oxygen-limited).
`CCCCCCC#Cc1cncc(-c2nnc(SCc3ccc([N+](=O)[O-])o3)n2C)c1` has an IC50 of 0.55 µM (bacterial growth; Erdman wild type).
`COc1ccc(-c2cc(C(F)(F)F)c3c(N)c(C(=O)N4CCCCC4)sc3n2)cc1` gave an IC50 of 11 ± 9 µM (growth inhibition; H37Rv LepB under-expressing).
`COC(=O)C(=O)[C@H](C[C@@H]1CCNC1=O)NC(=O)[C@H](CCCCN)NC(=O)[C@H](Cc1ccccc1)NC(=O)OCc1ccccc1` gave an IC50 of 10.8 ± 0.2 µM (bacterial growth; THP-1 macrophages, Mtb-lux; 48 h).
The IC50 of `CCCCCCC#Cc1cncc(-c2nnc(SCc3ccc(Cl)cc3)n2C)c1` is reported as 5.3 µM (bacterial growth; Erdman wild type).
For `COc1ccc(-c2cc(C(F)(F)F)c3c(N)c(C(=O)NC4CC4)sc3n2)cc1`, the IC50 was > 100 µM (growth inhibition; H37Rv LepB under-expressing).
`[H]/N=C(/N)N[C@H]1[C@H](O)[C@@H](O)[C@H](O[C@@H]2O[C@@H](C)[C@](O)(C=O)[C@H]2O[C@@H]2O[C@@H](CO)[C@H](O)[C@@H](O)[C@@H]2NC)[C@@H](N/C(N)=N\[H])[C@@H]1O` has an IC50 of 0.08 ± 0.02 µM (bacterial growth; H37Rv; Wayne model, oxygen-limited).
`Nc1c(C(=O)N2CCOCC2)sc2nc(-c3cccnc3)ccc12` has an IC50 of > 100 µM (growth inhibition; H37Rv LepB under-expressing).
`CCCCCCC#Cc1cncc(-c2nnc(SCc3ccc(Cl)cc3)n2C2CC2)c1` gave an IC50 of 5.1 ± 0.724 µM (bacterial growth, MABA; Erdman wild type).

Excerpt of the above:
`COc1ccc(-c2cc(C(F)(F)F)c3c(N)c(C(=O)N4CCCCC4)sc3n2)cc1` gave an IC50 of 11 ± 9 µM (growth inhibition; H37Rv LepB under-expressing).
`COC(=O)C(=O)[C@H](C[C@@H]1CCNC1=O)NC(=O)[C@H](CCCCN)NC(=O)[C@H](Cc1ccccc1)NC(=O)OCc1ccccc1` gave an IC50 of 10.8 ± 0.2 µM (bacterial growth; THP-1 macrophages, Mtb-lux; 48 h).
